Experimental data collected from several papers.
Lines come from different studies, so protocols differ. ± gives the spread as reported.
Method: steady-state kinetics
B1: putA N641A (Bradyrhizobium diazoefficiens, UniProt Q89E26); chain MPNIPPPFTAPYAPDDAEIAARLLPASHLSPPQEARIHRTATRLIEAIRKRDDRLGGVEDMLREFALSTKEGLALMVLAEALLRVPDARTADQFIEDKLGEGDFIHHETKSTAFLVNASAWALGLSARVIQPGETPDGTIGRLVKRLGAPAVRTATRQAMRLMGNHFVLGETIEQALERGKPRSGQKTRYSFDMLGEGARTAADARRYFDAYASAIETIGKAAGNHALPDRPGISVKLSALHPRFEAISRARVMVELVPQLLDLAQRAKAHDLNFTVDAEEADRLELSLDVIAATLADPSLKGWDGFGLAIQAYQKRASAVIDYVDALARAHDRKLMVRLVKGAYWDTEIKRAQERGLDGYPVFTRKAMTDLNYVACASKLLALRPRIFPQFATHNALTVATVLEMAEGSSGFEFQRLHGMGEALYEQLAKDHADIAYRTYAPVGSHRDLLAYLVRRLLENGANSSFVAQAADYRVPVPALLQRPADAIVRPQAAAHPRIPLPCDLFAPERRNSRGVEFGARTALDQLLTDVKAETGDLKPIADATPDQAHAAVAAARAGFAGWSRTPAGIRAAALEQAAHLLESRSAHFIALLQREGGKTLDDALSELREAADFCRYYAAQGRKLFGSETAMPGPTGESAALTMRGRGVFVAISPWNFPLAIFLGQVTAALMAGNSVVAKPAEQTPRIAREAVALLHEAGIPKSALYLVTGDGRIGAALTAHPDIAGVVFTGSTEVARSINRALAAKDGPIVPLIAETGGINAMIADATALPEQVADDVVTSAFRSAGQRCSALRLLFVQEDVADRMIEMVAGAARELKIGDPSDVATHVGPVIDVEAKQRLDAHIARMKTEARLHFAGPAPEGCFVAPHIFELTEAGQLTEEVFGPILHVVRYRPENLERVLRAIERTGYGLTLGVHSRIDDSIEAIIDRVQVGNIYVNRNMIGAVVGVQPFGGNGLSGTGPKAGGPHYLARFATEQTVTINTAAAGGNAALLAGEE
B2: MCAT R178G (Homo sapiens, UniProt Q8IVS2); chain GQGSQVVGMGRGLLNYPRVRELYAAARRVLGYDLLELSLHGPQETLDRTVHCQPAIFVASLAAVEKLHHLQPSVIENCVAAAGFSVGEFAALVFAGAMEFAEGLYAVKIGAEAMQEASEAVPSGMLSVLGQPQSKFNFACLEAREHCKSLGIENPVCEVSNYLFPDCRVISGHQEALRFLQKNSSKFHFRRTRMLPVSGAFHTRLMEPAVEPLTQALKAVDIKKPLVSVYSNVHAHRYRHPGHIHKLLAQQLVSPVKWEQTMHAIYERKKGRGFPQTFEVGPGRQLGAILKSCNMQAWKSYSAVDVL
B3: Saccharopine reductase (Saccharomyces cerevisiae, UniProt P38999); chain MGKNVLLLGSGFVAQPVIDTLAANDDINVTVACRTLANAQALAKPSGSKAISLDVTDDSALDKVLADNDVVISLIPYTFHPNVVKSAIRTKTDVVTSSYISPALRELEPEIVKAGITVMNEIGLDPGIDHLYAVKTIDEVHRAGGKLKSFLSYCGGLPAPEDSDNPLGYKFSWSSRGVLLALRNSAKYWKDGKIETVSSEDLMATAKPYFIYPGYAFVCYPNRDSTLFKDLYHIPEAETVIRGTLRYQGFPEFVKALVDMGMLKDDANEIFSKPIAWNEALKQYLGAKSTSKEDLIASIDSKATWKDDEDRERILSGFAWLGLFSDAKITPRGNALDTLCARLEELMQYEDNERDMVVLQHKFGIEWADGTTETRTSTLVDYGKVGGYSSMAATVGYPVAIATKFVLDGTIKGPGLLAPYSPEINDPIMKELKDKYGIYLKEKTVA
B4: LYPLA2 (Homo sapiens, UniProt O95372); chain MCGNTMSVPLLTDAATVSGAERETAAVIFLHGLGDTGHSWADALSTIRLPHVKYICPHAPRIPVTLNMKMVMPSWFDLMGLSPDAPEDEAGIKKAAENIKALIEHEMKNGIPANRIVLGGFSQGGALSLYTALTCPHPLAGIVALSCWLPLHRAFPQAANGSAKDLAILQCHGELDPMVPVRFGALTAEKLRSVVTPARVQFKTYPGVMHSSCPQEMAAVKEFLEKLLPPV
B5: ALPL (Homo sapiens, UniProt P05186); chain LVPEKEKDPKYWRDQAQETLKYALELQKLNTNVAKNVIMFLGDGMGVSTVTAARILKGQLHHNPGEETRLEMDKFPFVALSKTYNTNAQVPDSAGTATAYLCGVKANEGTVGVSAATERSRCNTTQGNEVTSILRWAKDAGKSVGIVTTTRVNHATPSAAYAHSADRDWYSDNEMPPEALSQGCKDIAYQLMHNIRDIDVIMGGGRKYMYPKNKTDVEYESDEKARGTRLDGLDLVDTWKSFKPRYKHSHFIWNRTELLTLDPHNVDYLLGLFEPGDMQYELNRNNVTDPSLSEMVVVAIQILRKNPKGFFLLVEGGRIDHGHHEGKAKQALHEAVEMDRAIGQAGSLTSSEDTLTVVTADHSHVFTFGGYTPRGNSIFGLAPMLSDTDKKPFTAILYGNGPGYKVVGGERENVSMVDYAHNNYQAQSAVPLRHETHGGEDVAVFSKGPMAHLLHGVHEQNYVPHVMAYAACIGANLGHCAPAS
B6: enzyme A178R/D177A/P184R (Levilactobacillus brevis, UniProt Q03Q85); chain MKVTVVGCTHAGTFAIKQILAEHPDAEVTVYERNDVISFLSCGIALYLGGKVADPQGLFYSSPEELQKLGANVQMNHNVLAIDPDQKTVTVEDLTNHAQTTESYDKLVMTSGSWPIVPKIPGIDSDRVKLCKNWAHAQALIEDAKEAKRITVIGAGYIGAELAEAYSTTGHDVTLIARMARVMRKYFDADFTDVIEQDYRDHGVQLALGETVESFTDSATGLTIKTDKNSYETDLAILCIGFRPNTDLLKGKVDMAPNGAIITDDYMRSSNPDIFAAGDSAAVHYNPTHQNAYIPLATNAVRQGILVGKNLVKPTVKYMGTQSSSGLALYDRTIVSTGLTLAAAKQQGLNAEQVIVEDNYRPEFMPSTEPVLMSLVFDPDTHRILGGALMSKYDVSQSANTLSVCIQNENTIDDLAMVDMLFQPNFDRPFNYLNILAQAAQAKVAQSVNA
B7: dxs (Escherichia coli, UniProt P77488); chain MSFDIAKYPTLALVDSTQELRLLPKESLPKLCDELRRYLLDSVSRSSGHFASGLGTVELTVALHYVYNTPFDQLIWDVGHQAYPHKILTGRRDKIGTIRQKGGLHPFPWRGESEYDVLSVGHSSTSISAGIGIAVAAEKEGKNRRTVCVIGDGAITAGMAFEAMNHAGDIRPDMLVILNDNEMSISENVGALNNHLAQLLSGKLYSSLREGGKKVFSGVPPIKELLKRTEEHIKGMVVPGTLFEELGFNYIGPVDGHDVLGLITTLKNMRDLKGPQFLHIMTKKGRGYEPAEKDPITFHAVPKFDPSSGCLPKSSGGLPSYSKIFGDWLCETAAKDNKLMAITPAMREGSGMVEFSRKFPDRYFDVAIAEQHAVTFAAGLAIGGYKPIVAIYSTFLQRAYDQVLHDVAIQKLPVLFAIDRAGIVGADGQTHQGAFDLSYLRCIPEMVIMTPSDENECRQMLYTGYHYNDGPSAVRYPRGNAVGVELTPLEKLPIGKGIVKRRGEKLAILNFGTLMPEAAKVAESLNATLVDMRFVKPLDEALILEMAASHEALVTVEENAIMGGAGSGVNEVLMAHRKPVPVLNIGLPDFFIPQGTQEEMRAELGLDAAGMEAKIKAWLA
B8: Alanine racemase (Geobacillus stearothermophilus, UniProt P10724); chain MNDFHRDTWAEVDLDAIYDNVENLRRLLPDDTHIMAVVKANAYGHGDVQVARTALEAGASRLAVAFLDEALALREKGIEAPILVLGASRPADAALAAQQRIALTVFRSDWLEEASALYSGPFPIHFHLKMDTGMGRLGVKDEEETKRIVALIERHPHFVLEGLYTHFATADEVNTDYFSYQYTRFLHMLEWLPSRPPLVHCANSAASLRFPDRTFNMVRFGIAMYGLAPSPGIKPLLPYPLKEAFSLHSRLVHVKKLQPGEKVSYGATYTAQTEEWIGTIPIGYADGWLRRLQHFHVLVDGQKAPIVGRICMDQCMIRLPGPLPVGTKVTLIGRQGDEVISIDDVARHLETINYEVPCTISYRVPRIFFRHKRIMEVRNAIGRGESSA
B9: protein E205A (Zea mays, UniProt A0A2H4PMI3); chain APFACVSRWLHTPSFATVSPQEVSGSSPAEVQNFVQGSWTASANWNWIVDPLNGDKFIKVAEVQGTEIKSFMESLSKCPKHGLHNPLKAPERYLMYGDISAKAAHMLGQPTVLDFFAKLIQRVSPKSYQQALAEVQVSQKFLENFCGDQVRFLARSFAVPGNHLGQRSNGYRWPYGPVAIITPFNFPLAIPLLQLMGALYMGNKPVLKVDSKVSIVMEQMIRLLHDCGLPAEDMDFINSDGAVMNKLLLEANPKMTLFTGSSRVAEKLAADLKGRVKLEDAGFDWKILGPDVQEVDYVAWVCDQDAYACSGQKCSAQSVLFMHKNWSSSGLLEKMKKLSERRKLEDLTIGPVLTVTTEAMIEHMNNLLKIRGSKVLFGGEPLANHSIPKIYGAMKPTAVFVPLEEILKSGNFELVTKEIFGPFQVVTEYSEDQLELVLEACERMNAHLTAAIVSNDPLFLQDVLGRSVNGTTYAGIRARTTGAPQNHWFGPAGDPRGAGIGTPEAIKLVWSCHREIIYDVGPVPESWALPSAT
B10: sacB S173A (Priestia megaterium, UniProt D5DC07); chain KGNDSKDFNNSYGISHITRDNMVKIPQQQNSDQFKVPAFDESTIKNIASAKGKNASGNTIDLDVWDSWPLQNADGTVATYHGYQIVFALAGDPKDSNDTSVYLFYKKAGDKSIDSWKNAGRVFKDSDKFVPNDPHLKNQTQEWAGSGTLTKDGKVRLFYTDYSGKQYGKQTLTTAQVNMSQPNDNTLKVDGVEDYKSIFDGDGKIYQTVQQFIDEGGYDTGDNHTLRDPHYIEDNGHKYLVFEANTGTEDGYQGEDSLYNRAYYGGNNPFFQSEKKKLLEGSNKEKASLANGALGIIELNDDYTLKKVMKPLITSNTVTDEIERANIFKKDGKWYLFTDSRGSKMTIDGIGQDDVYMLGYVSNTLTGKYKPLNDTGLVLHMDLDPNDKTFTYSHFAVPQTKGDNVVITSYMTNRGFYEDNHSTFAPSFLVNIDGSKTSVVKDRVLEQGQLTVDED
Chain of UniProt O95674 (whole entry, looked up): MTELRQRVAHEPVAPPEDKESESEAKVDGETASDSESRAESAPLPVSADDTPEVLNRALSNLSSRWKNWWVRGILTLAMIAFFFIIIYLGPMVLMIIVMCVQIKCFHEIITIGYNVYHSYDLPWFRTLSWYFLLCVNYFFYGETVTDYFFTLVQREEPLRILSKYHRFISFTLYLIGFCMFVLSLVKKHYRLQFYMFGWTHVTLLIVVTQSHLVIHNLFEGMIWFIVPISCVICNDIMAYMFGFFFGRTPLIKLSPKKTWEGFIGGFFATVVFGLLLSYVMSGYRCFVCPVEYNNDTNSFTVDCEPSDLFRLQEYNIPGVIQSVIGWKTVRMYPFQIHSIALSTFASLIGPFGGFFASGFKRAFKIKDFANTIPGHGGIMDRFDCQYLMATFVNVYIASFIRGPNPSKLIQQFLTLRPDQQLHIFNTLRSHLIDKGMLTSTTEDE
Chain of UniProt Q9WXT2 (whole entry, looked up): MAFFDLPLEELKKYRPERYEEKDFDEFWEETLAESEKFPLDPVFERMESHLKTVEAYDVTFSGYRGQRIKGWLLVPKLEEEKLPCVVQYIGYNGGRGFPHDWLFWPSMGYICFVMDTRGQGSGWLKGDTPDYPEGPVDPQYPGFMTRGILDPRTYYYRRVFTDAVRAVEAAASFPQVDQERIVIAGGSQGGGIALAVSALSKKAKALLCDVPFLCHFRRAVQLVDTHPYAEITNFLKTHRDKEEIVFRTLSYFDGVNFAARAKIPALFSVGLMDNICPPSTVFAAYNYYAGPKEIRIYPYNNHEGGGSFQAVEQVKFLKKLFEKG

Molecule | substrate | pH | temperature | notes | added | kcat
B1 (putA N641A) | O=C(O)[C@@H]1CCCN1 | pH 8 | 23 °C |  |  | 2.5 ± 0.4 s⁻¹
speG (Vibrio cholerae, UniProt Q9KL03) | NCCCNCCCCNCCCN | pH 9 | 37 °C |  |  | 38.9 s⁻¹
B2 (MCAT R178G) | CC(C)(COP(=O)(O)OP(=O)(O)OC[C@H]1O[C@@H](n2cnc3c(N)ncnc32)[C@H](O)[C@@H]1OP(=O)(O)O)[C@@H](O)C(=O)NCCC(=O)NCCSC(=O)CC(=O)O | pH 6.8 | 20 °C | labelled substrate | holo-ACP 20 µM | 0.00283 ± 0.000333 s⁻¹
B3 (Saccharopine reductase) | N[C@@H](CCCCN[C@@H](CCC(=O)O)C(=O)O)C(=O)O | pH 9 | 25 °C |  | saccharopine | 13 ± 1 s⁻¹
B4 (LYPLA2) | CN(C)c1ccc(/N=N/c2ccc(C(=O)NCCCn3cc(CCCCCCCCCCCCCCCC(=O)SC[C@H](NC(=O)c4cc5ccc(O)cc5oc4=O)C(=O)N4CCOCC4)nn3)cc2)cc1 | pH 7.4 | 37 °C |  |  | 0.044 ± 0.003 s⁻¹
B5 (ALPL) | CC1(C)Oc2ccc(C#N)cc2[C@@H](N2CCCC2=O)[C@@H]1OP(=O)(O)O | pH 7.4 |  |  |  | 0.25 s⁻¹
B6 (enzyme A178R/D177A/P184R) | NC(=O)C1=CN([C@@H]2O[C@H](COP(=O)(O)OP(=O)(O)OC[C@H]3O[C@@H](n4cnc5c(N)ncnc54)[C@H](O)[C@@H]3O)[C@@H](O)[C@H]2O)C=CC1 | pH 7.5 | 37 °C | per site |  | 59 ± 18 s⁻¹
B7 (dxs) | O=C(O)C(=O)CO | pH 6.8 | 37 °C |  |  | 0.026 ± 0.001 s⁻¹
B8 (Alanine racemase) | C[C@@H](N)C(=O)O | pH 8.9 | 25 °C | D to L direction |  | 1280 s⁻¹
CDS2 (Homo sapiens, UniProt O95674) | CCCCC/C=C\C/C=C\CCCCCCCC(=O)O[C@H](COC(=O)CCCCCCCCCCCCCCCCC)COP(=O)(O)O | pH 8 |  | not purified |  | 2.9 ± 0.1 s⁻¹
B9 (protein E205A) | O=CCCCC(=O)O | pH 7.5 | 30 °C | substrate inhibition | NAD+ 3.0 mM | 0.53 ± 0.02 s⁻¹
B10 (sacB S173A) | OC[C@H]1O[C@@](CO)(O[C@H]2O[C@H](CO)[C@@H](O)[C@H](O)[C@H]2O)[C@@H](O)[C@@H]1O | pH 6.6 |  |  |  | 3.8 ± 0.1 s⁻¹
axeA (Thermotoga maritima, UniProt Q9WXT2) | CC(=O)Oc1ccc([N+](=O)[O-])cc1 | pH 6.5 | 50 °C | temperature uncertain, apparent |  | 69.9 s⁻¹
